{"data": "Results pooled from the literature", "note": "Compare with care: the assays were run in different laboratories."}
{"SMILES": "CONC(=O)/C=C/c1cccc(S(=O)(=O)Nc2ccccc2)c1", "test system": "human, moderate liver dysfunction, plasma", "setting": "intravenous, 400 mg/m^2 belinostat, 30 min infusion, cycle 1 day -7", "half-life": "2.27 h"}
{"SMILES": "CCCCCCCCN(CCC(=O)Nc1ccccc1)C(=O)c1ccccn1", "assay": "chemical stability", "test system": "human, culture medium", "setting": "500 µM", "half-life": "> 24 h"}
{"SMILES": "CSCOC1C(=O)C2(C)C(OCSC)CC3OCC3(OC(C)=O)C2C(OC(=O)c2ccccc2)C2(O)CC(OC(=O)C(O)C(C=C(C)C)NC(=O)OC(C)(C)C)C(C)=C1C2(C)C (stereo not shown)", "test system": "male Sprague-Dawley rat, plasma", "setting": "intravenous, 2 mg/kg", "half-life": "8 h"}
{"SMILES": "C[Si]1(C[C@H](CN)CC(=O)O)CCCC1", "test system": "male Sprague-Dawley rat, plasma", "setting": "oral, 30 mg/kg, single dose", "half-life": "1.51 h"}
{"SMILES": "O=C(O)/C=C/c1cccc(S(=O)(=O)Nc2ccccc2)c1", "test system": "human, severe liver dysfunction, plasma", "setting": "intravenous, 400 mg/m^2 belinostat, 30 min infusion, cycle 1 day -7", "half-life": "2.55 h"}
{"SMILES": "Cc1ccc(OCC(=O)N(Cc2cccs2)c2ccn[nH]2)cc1", "test system": "male Sprague-Dawley rat, plasma", "setting": "oral, 10 mg/kg, single dose", "half-life": "0.6 h"}
{"SMILES": "Cn1c(=O)oc2ccc(-c3ccc(CC(C#N)NC(=O)C4CNCCCO4)c(F)c3)cc21 (stereo not shown)", "test system": "human, plasma", "setting": "15 mg, single dose, fasted, mean", "half-life": "16.5 h"}
{"SMILES": "CC(C)(O)c1ncc([S@](N)(=O)=NC(=O)Nc2c3c(cc4c2CCC4)CCC3)s1", "test system": "healthy human volunteers, plasma", "setting": "oral, 100 mg once daily, day 14, spray-dried dispersion", "half-life": "9.58 h"}
{"SMILES": "O=C(CCc1ccc(CNC(C(=O)OC2CCCC2)C2CCCCC2)cn1)NO (stereo not shown)", "test system": "human, plasma", "setting": "oral, multiple dose", "half-life": "< 1 h"}
{"SMILES": "NC(=O)/C=C/c1cccc(S(=O)(=O)Nc2ccccc2)c1", "test system": "human, moderate liver dysfunction, plasma", "setting": "intravenous, 400 mg/m^2 belinostat, 30 min infusion, cycle 1 day -7", "half-life": "8.1 h"}
{"SMILES": "CC(C)C[C@@H](NC(=O)[C@H](Cc1cccc2ccccc12)NC(=O)[C@H](CNC(=O)c1ccc2cc(F)ccc2c1)NC(=O)[C@H](CO)NC(=O)C1CCNCC1)C(=O)N[C@H](CO)C(=O)N1CCC[C@H]1C(=O)N[C@H](C(N)=O)[C@@H](C)O", "assay": "chemical stability", "test system": "male human, serum", "setting": "1 mM, pH 7.4", "half-life": "> 24 h"}
{"SMILES": "O=C(O)c1cccc(S(=O)(=O)Nc2ccccc2)c1", "test system": "human, mild liver dysfunction, plasma", "setting": "intravenous, 400 mg/m^2 belinostat, 30 min infusion, cycle 1 day -7", "half-life": "4.22 h"}
{"SMILES": "C[Si](C)(C)C[C@H](CN)CC(=O)O", "test system": "male Sprague-Dawley rat, plasma", "setting": "oral, 30 mg/kg, single dose", "half-life": "2.19 h"}
{"note": "Some of these lines once more:"}
{"SMILES": "CONC(=O)/C=C/c1cccc(S(=O)(=O)Nc2ccccc2)c1", "test system": "human, moderate liver dysfunction, plasma", "setting": "intravenous, 400 mg/m^2 belinostat, 30 min infusion, cycle 1 day -7", "half-life": "2.27 h"}
